Published values collected from several papers.
A part holds a random share of what one study measured. Changes are numbered by the printed parent chain.

Study 1
Target: Centromere-binding protein 1, full length, N-terminal tag (CBF1, Saccharomyces cerevisiae, UniProt P17106, residues 1-351)
UniProt P17106, sequence (whole entry, looked up): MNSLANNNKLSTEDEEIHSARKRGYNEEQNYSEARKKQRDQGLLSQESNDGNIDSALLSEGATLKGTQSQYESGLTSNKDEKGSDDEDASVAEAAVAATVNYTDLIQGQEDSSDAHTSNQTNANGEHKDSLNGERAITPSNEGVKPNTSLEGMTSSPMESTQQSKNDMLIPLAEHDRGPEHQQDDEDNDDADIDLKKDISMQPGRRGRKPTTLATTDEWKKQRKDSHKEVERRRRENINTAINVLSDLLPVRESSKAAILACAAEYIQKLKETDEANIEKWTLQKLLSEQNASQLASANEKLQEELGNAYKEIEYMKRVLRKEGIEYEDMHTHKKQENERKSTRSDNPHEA
Method: protein-binding microarray
Form: double-stranded DNA, one strand shown
Sample: in vitro
Concentration: 0.8 µM
Notes: whole 60-bp probe, no competitor
Direction: higher = stronger binding
Strand | fluorescence intensity [a.u.]
GAAGGAACTCTCGCTGATGTTCTGAGCGAGGTGTAGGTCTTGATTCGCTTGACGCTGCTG | 504
GAATTCAATAAATGTCACGAAAGGATTGTAGAATAGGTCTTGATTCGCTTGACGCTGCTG | 625
GAAGGGTTGTACTATCAGCAGAAAAAAGTAATTTAGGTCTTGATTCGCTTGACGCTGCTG | 537
GAAAGTATTAGCCAACACGTTATCGATACATTTTAGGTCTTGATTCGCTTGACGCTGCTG | 615
CCTAACTACTATATTGTGATGATATAGCTTCGTACAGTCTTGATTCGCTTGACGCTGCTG | 552
GAATCTGGACCTGCTAACGTGTTTCATCTTCTTTAGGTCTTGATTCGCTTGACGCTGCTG | 519
GAAATGGCGTGGGGTGGGGTGATTATCTAGACCTAGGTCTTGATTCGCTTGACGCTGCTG | 573
CTAGCTTCTCTAAACCACCTGATGCTTCTATCTTTCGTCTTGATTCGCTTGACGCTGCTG | 887
GAACCCGCTTCACGGCACATGCATGCATCAATGTAGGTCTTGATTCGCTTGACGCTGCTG | 723
CTATGATGTAATAGTGATGTTATATTGCTTTCGTTCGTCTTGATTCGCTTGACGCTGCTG | 538
CTAGGGTACTTGCGTCAGCTGTTCAGATCTTCTTTCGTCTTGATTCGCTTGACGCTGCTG | 881
GAACGAGTTGTATGTCTCGTGATTCAGGTACTATAGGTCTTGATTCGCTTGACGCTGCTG | 2370
GAAACTCGCTGCCGTCAGGCAAACCACAGATGCTAGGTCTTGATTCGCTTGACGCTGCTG | 512
GAATGCTCCGCTACAAACGTGGTGGAGTTTTAATAGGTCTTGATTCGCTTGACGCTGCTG | 503
GAACCCCCCTTGCGCCTCCTGATTCACGTGATGTAGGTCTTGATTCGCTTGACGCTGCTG | 2410
GAATAGAGAAAATCTGATGCAGCAAGATAGCAATAGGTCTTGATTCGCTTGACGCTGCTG | 544
CTAGCGCGGATGTGGCACATGCTGTTGAGATCTTTCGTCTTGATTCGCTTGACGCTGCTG | 764
CCTAACTACTATAGTCACACGTGATAGCTTCGTACAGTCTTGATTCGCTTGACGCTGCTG | 6830
CTACTGTAAATGCCGCAGATCACGTGGTAAAGATTCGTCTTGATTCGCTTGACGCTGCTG | 17100
CTATTTATGGCTTTCCATGTGGTTAAAGAAAAATTCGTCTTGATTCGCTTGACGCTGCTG | 614
GAACAGAAGGGTGATCAGTTGAGGTGGAGAGTTTAGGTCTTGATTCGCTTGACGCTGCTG | 585
GAACCCATTAACTCAAACGTGTATATAAATTGATAGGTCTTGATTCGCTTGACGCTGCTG | 650
CTACCGTAAAGTTCGATCGTGACTTCCTGTTGCTTCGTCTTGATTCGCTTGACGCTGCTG | 633
CTATAGAATATTAGAAACGTGCATGCCTACAATTTCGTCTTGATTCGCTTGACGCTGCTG | 697

Study 2
Target: ABI1, truncated, D143A, DHFR fusion (Arabidopsis thaliana)
Method: DHFR PCA, deep sequencing
Sample: yeast
Notes: methotrexate growth selection, single substitutions
Added: (+)-ABA 0.032 µM
Reference: wild-type fitted maximum
Direction: higher = stronger binding
Starting sequence: PYL1, truncated, DHFR fusion (Arabidopsis thaliana); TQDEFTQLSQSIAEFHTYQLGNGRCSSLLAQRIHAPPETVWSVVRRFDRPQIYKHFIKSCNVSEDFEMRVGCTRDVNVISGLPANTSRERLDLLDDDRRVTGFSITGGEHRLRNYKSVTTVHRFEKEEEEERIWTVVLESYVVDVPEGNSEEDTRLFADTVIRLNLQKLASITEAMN
Change | relative binding score [%]
F157L | 8.2
R123G | 72.6
I52E | 13.1
T39H | 9.51
C25N | -4.49
D95Q | 25
V121Q | -1.11
E64G | 14.9
A13R | 33.9
V40C | -0.0778
E152T | 7.68
Q31G | -5.85
T154G | -5.53

Study 3
Target: Sal-like protein 4, full length isoform B (SALL4, Homo sapiens, UniProt Q9UJQ4-2, residues 1-616)
Method: universal PBM
Form: double-stranded DNA, one strand shown
Sample: in vitro
Concentration: not given
Notes: 8-mer, flanks averaged, mean of replicates
Direction: higher = stronger binding
Strand | E-score
ACGTAAAG | 0.26
AAGGACAG | -0.148
CAGTATCC | 0.0144
AGGCAAAG | 0.0464
TATGTGAA | 0.289
ACTCCGGC | -0.26
AACCCCTG | -0.274
ACAACTGT | 0.0138
ACGAACCG | -0.156
AGCAGCGC | -0.343
AGGCGGGG | -0.117
CCGGCGAG | -0.296
CTTACCAA | 0.2
AGGCCCTA | -0.206
GACATTCC | -0.00758
CCTCCTAG | -0.146
AAATAGTA | 0.316
AGGTGGTC | -0.13
CGATTCAG | -0.166
CAGATTAC | 0.135
AATTGCCG | -0.00667
ATAGTTCA | 0.216
CGTACGAA | 0.0678
TCTGTTCA | -0.0248
ACAACGTC | -0.0869

Study 4
Target: Interferon regulatory factor 5, full length, phosphomimetic (IRF5, Homo sapiens, UniProt Q13568-2, residues 1-514, K96S/S451D/S453D/S456D/S462D)
Method: protein-binding microarray
Form: double-stranded DNA, one strand shown
Sample: in vitro
Concentration: 250 nM
Notes: 60-bp whole probe
Added: salmon DNA 0.4 mg/ml
Reference: random background probes
Direction: higher = stronger binding
All sequences stand within: GCCTAGCAC … GTCTTGATTCGCTTGACGCTGCTG
Strand | log fluorescence [z-score]
TCAATTGTGGTTTTCATACTGTGCTAG | 1.1
GACGGACTGCTTCTACTGACGTGCTAG | -0.346
TTAGATTTCGGCTATCGATTAGTGCTA | 7.03
GACGATATTAGTATCGAGACGTGCTAG | 3.56
AAGGCTTTGCTTCCTGCAGAGTGCTAG | -0.386
TTAGGTTTCGGCCTGGGTTAGTGCTAG | 7.7
CGAGATCTCCGAGATGCCTTCGTGCTA | -0.0552
GACGATATCGGGGATCGAGACGTGCTA | 0.87
TTAGATTCCAGTTTCCATTAGTGCTAG | 1.69
TTAGGTATCCTAGTGCTTTAGTGCTAG | -0.387
CATTTTAGTAGTTTCTAAAAGTGCTAG | 1.34
TTAGGTTTCGGTATCGATTAGTGCTAG | 11
TTAGGACTGCTTAGCCTTTAGTGCTAG | -0.616
AACAATATATATATTATATAGTGCTAG | 1.04
GTGGGGGGTGTGAGTGGGTGGTGCTAG | 2.48

Study 5
Target: Ras GTPase-activating protein-binding protein 1, RRM domain (G3BP1, Homo sapiens, UniProt Q13283)
UniProt Q13283, sequence (whole entry, looked up): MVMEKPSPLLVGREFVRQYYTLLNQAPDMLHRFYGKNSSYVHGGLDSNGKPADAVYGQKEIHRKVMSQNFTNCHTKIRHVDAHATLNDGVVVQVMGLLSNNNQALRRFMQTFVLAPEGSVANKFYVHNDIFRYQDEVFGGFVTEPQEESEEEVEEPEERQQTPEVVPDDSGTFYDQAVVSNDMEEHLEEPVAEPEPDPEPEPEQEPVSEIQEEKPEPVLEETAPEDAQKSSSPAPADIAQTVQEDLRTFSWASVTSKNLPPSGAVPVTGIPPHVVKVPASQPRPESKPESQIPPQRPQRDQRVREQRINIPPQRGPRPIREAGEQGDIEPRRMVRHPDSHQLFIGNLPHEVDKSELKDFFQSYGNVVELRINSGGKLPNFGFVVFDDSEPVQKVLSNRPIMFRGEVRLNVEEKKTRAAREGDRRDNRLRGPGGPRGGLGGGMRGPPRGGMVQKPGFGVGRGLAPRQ
Method: RNA Bind-n-Seq
Form: RNA
Sample: in vitro
Concentration: 1 µM
Notes: whole 134-nt RNA, ends assumed
Added: 150 mM KCl
Reference: input library
Direction: higher = stronger binding
Strand | log2 enrichment
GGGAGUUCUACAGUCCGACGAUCCCUGUGCUACACAUCGUAUGUACCGAAUCGGGGAAAAAGGGGAAAGGGGUUUUUUUGGGGAAAGUAUUAUGUUACGCCGUUCGGAUCUGCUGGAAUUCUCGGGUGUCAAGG | 0.64
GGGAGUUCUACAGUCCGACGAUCCUGUGCUACACAUCGUAUGUACCGAAUCAAAUUUUUUUAAACCCCCCCAAAUUUUUUUAAAAAAGUAUUAUGUUACGCCGUUCGGAUCUGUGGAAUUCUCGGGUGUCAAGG | -0.986
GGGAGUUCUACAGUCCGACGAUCCUCAAGUCCUGUGCUACACAUCGUAUGUACCGAAUCGGGGUUGGUUGGGUUGGGAAAGUAUUAUGUUACGCCGUUCGGAUCUGCACUUCCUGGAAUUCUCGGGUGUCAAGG | 0.0356
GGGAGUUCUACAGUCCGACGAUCACCAUGCAGGUGGGCAUCUUUGGGAAGUGGGGCAAGGGGGGGAUAGGGAGGGGGGUAACAAAAUGGGAACAGGUGGUCCCAGGUCGUUUCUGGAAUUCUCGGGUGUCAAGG | -0.448
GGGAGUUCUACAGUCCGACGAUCCCUGUGCUACACAUCGUAUGUACCGAAUCGGAAAAAAGGGGAAAAAAGGGAAAAAAGGGGAAAGUAUUAUGUUACGCCGUUCGGAUCUGCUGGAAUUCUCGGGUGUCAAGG | 0.0461
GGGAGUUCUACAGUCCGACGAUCAGUCCUGUGCUACACAUCGUAUGUACCGAAUCGGGAAAAAAAGGGAAAAAGGGAGGGAAAGUAUUAUGUUACGCCGUUCGGAUCUGCACUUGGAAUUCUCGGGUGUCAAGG | 0.734
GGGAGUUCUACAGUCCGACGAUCGUCCUGUGCUACACAUCGUAUGUACCGAAUCGGGUGGGUUUUUUUGGGUUUUUUUGGGAAAGUAUUAUGUUACGCCGUUCGGAUCUGCACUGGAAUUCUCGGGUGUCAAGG | 0.217
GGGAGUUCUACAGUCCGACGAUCGUCCUGUGCUACACAUCGUAUGUACCGAAUCGGGUUUUUUUGGGUUUUUGGGUUUGGGAAAGUAUUAUGUUACGCCGUUCGGAUCUGCACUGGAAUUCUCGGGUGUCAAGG | -0.144
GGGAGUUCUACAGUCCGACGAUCGUCCUGUGCUACACAUCGUAUGUACCGAAUCAAACCCCCAAACCCAAACCCCCCCAAAAAAGUAUUAUGUUACGCCGUUCGGAUCUGCACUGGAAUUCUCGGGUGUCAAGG | 0.0207
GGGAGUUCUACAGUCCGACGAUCUGGCCCUGGUGGCAUGCGGGGAGGAAGAGGUGGCCUCAUGGAUUGUGGUGGUCCCGGUGGAAUGUUCAGAGGUGGCCGUGGUGGAGACAGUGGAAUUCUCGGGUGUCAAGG | 0.98
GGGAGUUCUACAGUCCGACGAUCUCAAGUCCUGUGCUACACAUCGUAUGUACCGAAUCGGUUUUUUUGGUGGAAAGGAAAGUAUUAUGUUACGCCGUUCGGAUCUGCACUUCCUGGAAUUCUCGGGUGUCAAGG | -0.159
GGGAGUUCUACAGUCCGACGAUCCAAGUCCUGUGCUACACAUCGUAUGUACCGAAUCGGUUUUGGUUUUGGUUUUGGGAAAGUAUUAUGUUACGCCGUUCGGAUCUGCACUUCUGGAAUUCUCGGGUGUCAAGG | -0.283
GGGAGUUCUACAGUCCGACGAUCUUAGAAGAACCCGAAGAACCUAAAGUGCUAACACCAGAAGAACAAUUAGCAGAUAAACUGCGGCUAAAGAAAUUACAGGAAGAGUCAGACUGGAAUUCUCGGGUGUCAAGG | 0.165
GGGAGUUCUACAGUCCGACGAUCUUAAGGAAGGACACUGAGUCAUGCACAAGUCCUUGCCUUCUUGGUGCCCCUCGGAAAGCACAAGACCCCUCCUCUGCUGGGUGUGAUCAAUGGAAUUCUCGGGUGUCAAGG | -0.00649
